Published values gathered from unrelated publications.
Parts stem from different laboratories: compare values within a part only. Values joined by “and” are separate records of one study, mostly repeats; a detail may differ.
UniProt Q8NG66, sequence (whole entry, looked up): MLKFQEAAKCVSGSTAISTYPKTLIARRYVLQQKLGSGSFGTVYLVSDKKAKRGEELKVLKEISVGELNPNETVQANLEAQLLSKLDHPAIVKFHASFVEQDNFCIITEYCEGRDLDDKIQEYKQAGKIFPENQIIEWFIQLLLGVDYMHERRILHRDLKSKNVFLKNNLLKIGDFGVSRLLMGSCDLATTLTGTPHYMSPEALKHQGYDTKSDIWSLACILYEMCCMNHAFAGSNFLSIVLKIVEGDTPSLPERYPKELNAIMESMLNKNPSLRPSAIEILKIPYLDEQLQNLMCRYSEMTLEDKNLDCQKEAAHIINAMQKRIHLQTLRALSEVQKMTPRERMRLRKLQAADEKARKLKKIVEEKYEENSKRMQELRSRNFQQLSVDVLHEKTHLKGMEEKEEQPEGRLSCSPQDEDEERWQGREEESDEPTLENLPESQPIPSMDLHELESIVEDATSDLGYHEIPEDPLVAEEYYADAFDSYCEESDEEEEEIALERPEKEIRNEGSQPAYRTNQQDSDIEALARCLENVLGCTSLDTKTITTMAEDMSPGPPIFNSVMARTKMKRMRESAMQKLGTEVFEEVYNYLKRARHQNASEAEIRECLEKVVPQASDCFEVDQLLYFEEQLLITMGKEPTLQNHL
UniProt Q6XUX3, sequence (whole entry, looked up): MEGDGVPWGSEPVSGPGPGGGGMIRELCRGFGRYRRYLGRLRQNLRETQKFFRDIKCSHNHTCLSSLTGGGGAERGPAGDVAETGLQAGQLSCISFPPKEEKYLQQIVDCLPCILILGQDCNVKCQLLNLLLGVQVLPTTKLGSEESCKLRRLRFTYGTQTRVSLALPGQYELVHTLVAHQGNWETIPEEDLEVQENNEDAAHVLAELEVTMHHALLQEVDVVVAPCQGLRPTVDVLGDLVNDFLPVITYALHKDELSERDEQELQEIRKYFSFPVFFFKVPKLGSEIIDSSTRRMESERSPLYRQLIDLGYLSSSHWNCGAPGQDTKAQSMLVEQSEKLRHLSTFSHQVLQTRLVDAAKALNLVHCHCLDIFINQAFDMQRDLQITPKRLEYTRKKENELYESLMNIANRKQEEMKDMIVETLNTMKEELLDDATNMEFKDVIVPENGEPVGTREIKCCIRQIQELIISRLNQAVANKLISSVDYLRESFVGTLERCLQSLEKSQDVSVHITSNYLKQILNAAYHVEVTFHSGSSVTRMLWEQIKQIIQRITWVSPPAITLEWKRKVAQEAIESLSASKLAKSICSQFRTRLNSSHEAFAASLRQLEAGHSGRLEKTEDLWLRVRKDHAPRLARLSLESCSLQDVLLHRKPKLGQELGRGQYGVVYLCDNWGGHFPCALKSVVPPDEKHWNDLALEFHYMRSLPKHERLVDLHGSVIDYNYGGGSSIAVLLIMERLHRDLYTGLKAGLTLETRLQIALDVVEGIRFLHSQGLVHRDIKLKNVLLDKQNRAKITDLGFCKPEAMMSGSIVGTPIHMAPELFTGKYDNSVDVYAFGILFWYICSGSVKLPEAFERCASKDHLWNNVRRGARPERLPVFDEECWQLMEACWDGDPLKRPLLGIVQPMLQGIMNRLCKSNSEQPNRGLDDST
UniProt Q9UF33, sequence (whole entry, looked up): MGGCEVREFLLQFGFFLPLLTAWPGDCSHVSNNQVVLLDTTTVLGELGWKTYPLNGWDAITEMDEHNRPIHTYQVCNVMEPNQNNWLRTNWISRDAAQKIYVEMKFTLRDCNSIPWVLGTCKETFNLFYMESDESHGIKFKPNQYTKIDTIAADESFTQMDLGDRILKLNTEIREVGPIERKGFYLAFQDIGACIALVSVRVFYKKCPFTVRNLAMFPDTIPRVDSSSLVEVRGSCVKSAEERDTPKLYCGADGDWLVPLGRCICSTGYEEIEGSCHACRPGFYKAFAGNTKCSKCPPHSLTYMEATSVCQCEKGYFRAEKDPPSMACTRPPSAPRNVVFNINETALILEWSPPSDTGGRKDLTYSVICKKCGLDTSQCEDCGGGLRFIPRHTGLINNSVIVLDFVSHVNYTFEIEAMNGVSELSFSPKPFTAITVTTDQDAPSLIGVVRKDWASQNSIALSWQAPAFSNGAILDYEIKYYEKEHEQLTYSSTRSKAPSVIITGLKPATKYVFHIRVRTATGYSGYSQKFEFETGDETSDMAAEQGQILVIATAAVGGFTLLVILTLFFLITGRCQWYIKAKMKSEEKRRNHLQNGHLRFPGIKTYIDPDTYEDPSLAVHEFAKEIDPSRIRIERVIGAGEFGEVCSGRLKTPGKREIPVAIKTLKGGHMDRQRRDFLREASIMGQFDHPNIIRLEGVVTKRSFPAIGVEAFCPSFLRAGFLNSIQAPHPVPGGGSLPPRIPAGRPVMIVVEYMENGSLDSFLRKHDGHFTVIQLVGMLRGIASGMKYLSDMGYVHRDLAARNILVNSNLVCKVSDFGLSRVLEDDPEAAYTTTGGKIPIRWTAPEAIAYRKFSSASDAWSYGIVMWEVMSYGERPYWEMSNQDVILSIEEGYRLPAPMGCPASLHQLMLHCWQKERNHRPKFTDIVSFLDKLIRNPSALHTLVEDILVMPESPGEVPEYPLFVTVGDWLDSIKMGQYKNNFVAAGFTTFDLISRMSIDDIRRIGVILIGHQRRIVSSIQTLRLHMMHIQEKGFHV
UniProt Q13131, sequence (whole entry, looked up): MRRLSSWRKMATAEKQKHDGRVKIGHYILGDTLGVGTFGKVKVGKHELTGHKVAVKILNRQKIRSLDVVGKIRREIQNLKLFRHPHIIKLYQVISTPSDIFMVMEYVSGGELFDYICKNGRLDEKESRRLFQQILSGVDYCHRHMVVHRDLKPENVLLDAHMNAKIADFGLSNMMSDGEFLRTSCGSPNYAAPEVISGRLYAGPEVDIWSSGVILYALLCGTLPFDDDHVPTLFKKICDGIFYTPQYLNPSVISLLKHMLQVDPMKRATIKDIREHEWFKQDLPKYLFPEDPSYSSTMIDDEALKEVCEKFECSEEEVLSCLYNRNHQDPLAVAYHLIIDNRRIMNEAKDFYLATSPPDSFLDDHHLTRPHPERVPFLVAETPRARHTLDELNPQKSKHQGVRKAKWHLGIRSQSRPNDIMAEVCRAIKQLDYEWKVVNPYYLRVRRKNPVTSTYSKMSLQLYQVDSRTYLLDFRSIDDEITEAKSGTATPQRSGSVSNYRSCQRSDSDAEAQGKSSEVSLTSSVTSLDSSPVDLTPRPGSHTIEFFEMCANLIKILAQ
UniProt P42336, sequence (whole entry, unmodified, looked up): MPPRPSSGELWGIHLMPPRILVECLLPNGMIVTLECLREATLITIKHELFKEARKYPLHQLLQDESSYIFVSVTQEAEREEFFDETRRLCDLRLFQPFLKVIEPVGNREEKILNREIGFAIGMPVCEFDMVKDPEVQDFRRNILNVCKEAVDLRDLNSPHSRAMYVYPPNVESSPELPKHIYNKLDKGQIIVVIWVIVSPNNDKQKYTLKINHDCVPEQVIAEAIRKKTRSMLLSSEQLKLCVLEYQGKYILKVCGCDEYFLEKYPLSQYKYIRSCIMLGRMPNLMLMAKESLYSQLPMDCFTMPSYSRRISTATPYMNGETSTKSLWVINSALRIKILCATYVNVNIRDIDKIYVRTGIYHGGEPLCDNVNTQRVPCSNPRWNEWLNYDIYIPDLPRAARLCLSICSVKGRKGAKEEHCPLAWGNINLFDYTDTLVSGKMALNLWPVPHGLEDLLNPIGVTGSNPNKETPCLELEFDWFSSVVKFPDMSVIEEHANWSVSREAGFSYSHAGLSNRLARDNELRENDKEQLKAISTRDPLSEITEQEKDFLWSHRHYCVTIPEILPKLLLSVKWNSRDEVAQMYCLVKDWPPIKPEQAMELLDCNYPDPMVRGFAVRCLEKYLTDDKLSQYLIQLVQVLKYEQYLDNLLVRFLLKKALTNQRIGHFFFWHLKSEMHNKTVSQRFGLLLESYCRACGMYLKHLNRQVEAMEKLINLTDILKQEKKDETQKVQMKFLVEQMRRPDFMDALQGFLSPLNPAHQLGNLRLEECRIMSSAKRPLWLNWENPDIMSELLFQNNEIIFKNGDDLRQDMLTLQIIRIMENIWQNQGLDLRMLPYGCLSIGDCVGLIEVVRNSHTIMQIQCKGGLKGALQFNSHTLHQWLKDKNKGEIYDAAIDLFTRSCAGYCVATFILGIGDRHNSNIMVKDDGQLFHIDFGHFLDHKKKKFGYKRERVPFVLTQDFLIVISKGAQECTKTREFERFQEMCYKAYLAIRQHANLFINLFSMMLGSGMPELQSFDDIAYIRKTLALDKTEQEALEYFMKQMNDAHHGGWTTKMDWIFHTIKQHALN

Sample 1 — read-out: enzyme activity; action: inhibitor; concentration: 10 µM; quantity: inhibition
Target: Calcium/calmodulin-dependent protein kinase type II subunit alpha (CAMK2A, Homo sapiens, UniProt Q9UQM7)
UniProt Q9UQM7, sequence (whole entry, looked up): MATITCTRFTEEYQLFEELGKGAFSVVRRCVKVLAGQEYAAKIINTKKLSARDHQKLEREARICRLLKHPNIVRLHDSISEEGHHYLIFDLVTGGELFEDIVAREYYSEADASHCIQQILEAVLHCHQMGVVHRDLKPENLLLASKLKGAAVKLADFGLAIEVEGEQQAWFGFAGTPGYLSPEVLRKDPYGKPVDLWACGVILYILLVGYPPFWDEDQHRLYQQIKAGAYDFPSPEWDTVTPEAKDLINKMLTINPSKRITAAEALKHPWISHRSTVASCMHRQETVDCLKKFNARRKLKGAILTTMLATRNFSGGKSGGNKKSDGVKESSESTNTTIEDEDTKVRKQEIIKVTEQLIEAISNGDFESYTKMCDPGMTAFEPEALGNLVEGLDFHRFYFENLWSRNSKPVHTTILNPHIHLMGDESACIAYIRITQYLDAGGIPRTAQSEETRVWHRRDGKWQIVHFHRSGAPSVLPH
CCOc1ccccc1C(=O)NCc1coc(-c2ccc(OC(F)F)c(OC(C)C)c2)n1: 1%
COc1cc(/C=C/C(=O)OC[C@H]2O[C@H](O[C@]3(CO)O[C@H](CO)[C@@H](O)[C@@H]3O)[C@H](O)[C@@H](O)[C@@H]2O)cc(OC)c1O: 6%
CC(COc1ccccc1Cc1ccccc1)N1CCCCC1 (stereo not shown): 5%
COc1ccc(CC(=O)O)cc1OC: 20%
Nc1c(CC(=O)O)cccc1C(=O)c1ccccc1: 0%
CC/C=C(\C(=O)N[C@@H]1C(=O)N2C(C(=O)OCOC(=O)C(C)(C)C)=C(COC(N)=O)CS[C@H]12)c1csc(N)n1: -15%
C[C@H](CC[C@@H](O[C@@H]1O[C@H](CO[C@@H]2O[C@H](CO)[C@@H](O)[C@H](O)[C@H]2O)[C@@H](O)[C@H](O)[C@H]1O)C(C)(C)O)[C@H]1CC[C@@]2(C)[C@@H]3CC=C4[C@@H](CC[C@H](O[C@@H]5O[C@H](CO[C@@H]6O[C@H](CO)[C@@H](O)[C@H](O)[C@H]6O)[C@@H](O)[C@H](O)[C@H]5O)C4(C)C)[C@]3(C)[C@H](O)C[C@]12C: -16%
COc1c2ccoc2cc2oc(=O)ccc12: 20%
CC[C@@H]1CN(C(=O)NCC(F)(F)F)C[C@@H]1c1cnc2cnc3[nH]ccc3n12: 21%

Sample 2 — read-out: enzyme activity; concentration: 10 µM; quantity: remaining activity
SMILES: Cc1sc(C(=O)NC2COC2)cc1-n1cc(NC(=O)Nc2c(F)cccc2Cl)cn1
ZAP70 (Homo sapiens, UniProt P43403); relative to: untreated control: 98.8%
KSR1 (Homo sapiens, UniProt Q8IVT5); inhibitor: 103%
NEK11 (Homo sapiens, UniProt Q8NG66); relative to: untreated control: 63.5%
MASTL (Homo sapiens, UniProt Q96GX5); relative to: untreated control: 108%
EPHA6 (Homo sapiens, UniProt Q9UF33); relative to: untreated control: 78.8%
NEK5 (Homo sapiens, UniProt Q6P3R8); inhibitor: 105%
MAP3K11 (Homo sapiens, UniProt Q16584); relative to: untreated control: 86.3%
MELK (Homo sapiens, UniProt Q14680); relative to: untreated control: 100%
ULK1 (Homo sapiens, UniProt O75385); relative to: untreated control: 70.8%
PRKACB (Homo sapiens, UniProt P22694); relative to: untreated control: 104%

Sample 3 — organism: Sarcocystis neurona; read-out: parasite growth; concentration: 10 µM; time: 96 h; setting: first screen; quantity: inhibition
OCc1cccnc1: -5.2%
O=C(NCCO[N+](=O)[O-])c1cccnc1: 4.1%
CNS(=O)(=O)Cc1ccc2[nH]cc(CCN(C)C)c2c1: -0.647%
Cc1noc(NS(=O)(=O)c2ccc(N)cc2)c1C: -9.8%
O=C(c1ccc(OCCN2CCCCC2)cc1)c1c(-c2ccc(O)cc2)sc2cc(O)ccc12: 17%
CC(=O)[C@H]1CC[C@H]2[C@@H]3C[C@H](C)C4=CC(=O)CC[C@]4(C)[C@H]3[C@@H](O)C[C@]12C: -22.4%
CCOC(=O)O[C@]1(C(=O)OCCl)CC[C@H]2[C@@H]3CCC4=CC(=O)C=C[C@]4(C)[C@H]3[C@@H](O)C[C@@]21C: 5%
Nc1nc(F)nc2c1ncn2[C@@H]1O[C@H](CO)[C@@H](O)[C@@H]1O: 1.1%

Sample 4 — concentration: 0.1 µM; quantity: remaining binding
SMILES: CS(=O)(=O)N1CCCC(NC(=O)[C@H](CCC2CCCCC2)NC(=O)c2ccc(CNc3ncnc4c3nnn4-c3ccccc3)cc2)C1 (stereo partly shown)
Non-receptor tyrosine-protein kinase TYK2, JH1 (TYK2, Homo sapiens, UniProt P29597); cell-free assay, competition with immobilised ligand: 99%
BMPR1A (Homo sapiens, UniProt P36894); binding, competition with immobilised ligand: 90%
Ribosomal protein S6 kinase alpha-5, N-terminal kinase domain (RPS6KA5, Homo sapiens, UniProt O75582); cell-free assay, competition with immobilised ligand: 81%
PLK1 (Homo sapiens, UniProt P53350); cell-free assay, competition with immobilised ligand: 80%
PIK3CA (Homo sapiens, UniProt P42336, M1043I); cell-free assay, competition with immobilised ligand: 87%
MAP3K9 (Homo sapiens, UniProt P80192); cell-free assay, competition with immobilised ligand: 90%
DCLK1 (Homo sapiens, UniProt O15075); cell-free assay, competition with immobilised ligand: 100%
DSTYK (Homo sapiens, UniProt Q6XUX3); cell-free assay, competition with immobilised ligand: 80%
TYRO3 (Homo sapiens, UniProt Q06418); cell-free assay, competition with immobilised ligand: 90%
IRAK4 (Homo sapiens, UniProt Q9NWZ3); cell-free assay, competition with immobilised ligand: 100%
CDC42BPG (Homo sapiens, UniProt Q6DT37); competition binding: 99%
ROS1 (Homo sapiens, UniProt P08922); cell-free assay, competition with immobilised ligand: 91%
MAP3K13 (Homo sapiens, UniProt O43283); cell-free assay, competition with immobilised ligand: 100%
PRKAA1 (Homo sapiens, UniProt Q13131); cell-free assay, competition with immobilised ligand: 100%
FLT3 (Homo sapiens, UniProt P36888, D835Y); cell-free assay, competition with immobilised ligand: 93%
PAK6 (Homo sapiens, UniProt Q9NQU5); cell-free assay, competition with immobilised ligand: 100%
NUAK1 (Homo sapiens, UniProt O60285); cell-free assay, competition with immobilised ligand: 100%
WNK1 (Homo sapiens, UniProt Q9H4A3); cell-free assay, competition with immobilised ligand: 100%
BMP2K (Homo sapiens, UniProt Q9NSY1); cell-free assay, competition with immobilised ligand: 84%
Ribosomal protein S6 kinase alpha-2, N-terminal kinase domain (RPS6KA2, Homo sapiens, UniProt Q15349); cell-free assay, competition with immobilised ligand: 100%
MYLK3 (Homo sapiens, UniProt Q32MK0); cell-free assay, competition with immobilised ligand: 100%

Single results of other studies
CC(=O)N[C@@H](Cc1c[nH]c2ccccc12)C(=O)N[C@@H](CCC(=O)C=[N+]=[N-])C(=O)OC(C)C
succinate level (UPLC-MS/MS; EL4 tumor, C57BL/6 CES1-/- mice, tumor; subcutaneous, 0.3 mg/kg DON equivalent daily, 5 days; higher = more metabolite): 4.2e+07 a.u. and 3.43e+07 a.u. and 6.69e+07 a.u. and 5.93e+07 a.u. and 6.11e+07 a.u. and 4.21e+07 a.u.

For quick reference, copied from above (sample 1):
CC/C=C(\C(=O)N[C@@H]1C(=O)N2C(C(=O)OCOC(=O)C(C)(C)C)=C(COC(N)=O)CS[C@H]12)c1csc(N)n1: -15%
COc1ccc(CC(=O)O)cc1OC: 20%
CC[C@@H]1CN(C(=O)NCC(F)(F)F)C[C@@H]1c1cnc2cnc3[nH]ccc3n12: 21%
C[C@H](CC[C@@H](O[C@@H]1O[C@H](CO[C@@H]2O[C@H](CO)[C@@H](O)[C@H](O)[C@H]2O)[C@@H](O)[C@H](O)[C@H]1O)C(C)(C)O)[C@H]1CC[C@@]2(C)[C@@H]3CC=C4[C@@H](CC[C@H](O[C@@H]5O[C@H](CO[C@@H]6O[C@H](CO)[C@@H](O)[C@H](O)[C@H]6O)[C@@H](O)[C@H](O)[C@H]5O)C4(C)C)[C@]3(C)[C@H](O)C[C@]12C: -16%
Nc1c(CC(=O)O)cccc1C(=O)c1ccccc1: 0%
CCOc1ccccc1C(=O)NCc1coc(-c2ccc(OC(F)F)c(OC(C)C)c2)n1: 1%
CC(COc1ccccc1Cc1ccccc1)N1CCCCC1 (stereo not shown): 5%
COc1c2ccoc2cc2oc(=O)ccc12: 20%
